Measured values of several laboratories.
Compare with care: the assays were run in different laboratories.
Method: steady-state kinetics
B1: cyc1 F95H (Streptomyces coelicolor, UniProt Q9K499); chain MHAFPHGTTATPTAIAVPPSLRLPVIEAAFPRQLHPYWPKLQETTRTWLLEKRLMPADKVEEYADGLCYTDLMAGYYLGAPDEVLQAIADYSAWHFVWDDRHDRDIVHGRAGAWRRLRGLLHTALDSPGDHLHHEDTLVAGFADSVRRLYAFLPATWNARFARHFHTVIEAYDREFHNRTRGIVPGVEEYLELRRLTFAHWIWTDLLEPSSGCELPDAVRKHPAYRRAALLSQEFAAWYNDLCSLPKEIAGDEVHNLGISLITHHSLTLEEAIGEVRRRVEECITEFLAVERDALRFADELADGTVRGKELSGAVRANVGNMRNWFSSVYWFHHESGRYMVDSWDDRSTPPYVNNEAAGEK
B2: ST3GAL2 (Homo sapiens, UniProt Q16842); chain HHSMATLPYLDSGALDGTHRVKLVPGYAGLQRLSKERLSGKSCACRRCMGDAGASDWFDSHFDGNISPVWTRENMDLPPDVQRWWMMLQPQFKSHNTNEVLEKLFQIVPGENPYRFRDPHQCRRCAVVGNSGNLRGSGYGQDVDGHNFIMRMNQAPTVGFEQDVGSRTTHHFMYPESAKNLPANVSFVLVPFKVLDLLWIASALSTGQIRFTYAPVKSFLRVDKEKVQIYNPAFFKYIHDRWTEHHGRYPSTGMLVLFFALHVCDEVNVYGFGADSRGNWHHYWENNRYAGEFRKTGVHDADFEAHIIDMLAKASKIEVYRGN
B3: POLI (Homo sapiens, UniProt Q9UNA4); chain MEKLGVEPEEEGGGDDDEEDAEAWAMELADVGAAASSQGVHDQVLPTPNASSRVIVHVDLDCFYAQVEMISNPELKDKPLGVQQKYLVVTCNYEARKLGVKKLMNVRDAKEKCPQLVLVNGEDLTRYREMSYKVTELLEEFSPVVERLGFDENFVDLTEMVEKRLQQLQSDELSAVTVSGHVYNNQSINLLDVLHIRLLVGSQIAAEMREAMYNQLGLTGCAGVASNKLLAKLVSGVFKPNQQTVLLPESCQHLIHSLNHIKEIPGIGYKTAKCLEALGINSVRDLQTFSPKILEKELGISVAQRIQKLSFGEDNSPVILSGPPQSFSEEDSFKKCSSEVEAKNKIEELLASLLNRVCQDGRKPHTVRLIIRRYSSEKHYGRESRQCPIPSHVIQKLGTGNYDVMTPMVDILMKLFRNMVNVKMPFHLTLLSVCFCNLKALNTAKKGLIDYYLMPSLSTTSRSGKHSFKMKDTHMEDFPKDKETNRDFLPSGRIESTRTRESPLDTTNFSKEKDINEFPLCSLPEGVDQEVFKQLPVDIQEEILSGKSREKFQGKGSVSCPLHASRGVLSFFSKKQMQDIPINPRDHLSSSKQVSSVSPCEPGTSGFNSSSSSYMSSQKDYSYYLDNRLKDERISQGPKEPQGFHFTNSNPAVSAFHSFPNLQSEQLFSRNHTTDSHKQTVATDSHEGLTENREPDSVDEKITFPSDIDPQVFYELPEAVQKELLAEWKRAGSDFHIGHK
B4: protein (Streptomyces coelicolor, UniProt P16544); chain MATQDSEVALVTGATSGIGLEIARRLGKEGLRVFVCARGEEGLRTTLKELREAGVEADGRTCDVRSVPEIEALVAAVVERYGPVDVLVNNAGRPGGGATAELADELWLDVVETNLTGVFRVTKQVLKAGGMLERGTGRIVNIASTGGKQGVVHAAPYSASKHGVVGFTKALGLELARTGITVNAVCPGFVETPMAASVREHYSDIWEVSTEEAFDRITARVPIGRYVQPSEVAEMVAYLIGPGAAAVTAQALNVCGGLGNY
B5: enzyme (Staphylococcus aureus, UniProt P69848); chain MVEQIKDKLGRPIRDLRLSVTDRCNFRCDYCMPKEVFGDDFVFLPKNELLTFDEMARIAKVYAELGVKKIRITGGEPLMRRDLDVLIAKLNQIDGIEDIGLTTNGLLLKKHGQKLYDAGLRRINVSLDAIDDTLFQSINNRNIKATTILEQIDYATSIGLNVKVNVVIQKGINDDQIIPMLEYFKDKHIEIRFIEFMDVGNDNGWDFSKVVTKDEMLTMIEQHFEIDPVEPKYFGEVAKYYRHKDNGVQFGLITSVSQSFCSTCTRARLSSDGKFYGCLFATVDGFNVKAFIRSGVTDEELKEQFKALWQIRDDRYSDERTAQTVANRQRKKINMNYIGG
B6: UGT1A9 (Homo sapiens, UniProt O60656); chain GKLLVVPMDGSHWFTMRSVVEKLILRGHEVVVVMPEVSWQLGRSLNCTVKTYSTSYTLEDLDREFKAFAHAQWKAQVRSIYSLLMGSYNDIFDLFFSNCRSLFKDKKLVEYLKESSFDAVFLDPFDNCGLIVAKYFSLPSVVFARGILCHYLEEGAQCPAPLSYVPRILLGFSDAMTFKERVRNHIMHLEEHLLCHRFFKNALEIASEILQTPVTEYDLYSHTSIWLLRTDFVLDYPKPVMPNMIFIGGINCHQGKPLPMEFEAYINASGEHGIVVFSLGSMVSEIPEKKAMAIADALGKIPQTVLWRYTGTRPSNLANNTILVKWLPQNDLLGHPMTRAFITHAGSHGVYESICNGVPMVMMPLFGDQMDNAKRMETKGAGVTLNVLEMTSEDLENALKAVINDKSYKENIMRLSSLHKDRPVEPLDLAVFWVEFVMRHKGAPHLRPAAHDLTWYQYHSLDVIGFLLAVVLTVAFITFKCCAYGYRKCLGKKGRVKKAHKSKTH
B7: engA (Bacillus subtilis, UniProt P50743); chain MGKPVVAIVGRPNVGKSTIFNRIAGERISIVEDTPGVTRDRIYSSAEWLNYDFNLIDTGGIDIGDEPFLAQIRQQAEIAMDEADVIIFMVNGREGVTAADEEVAKILYRTKKPVVLAVNKLDNTEMRANIYDFYSLGFGEPYPISGTHGLGLGDLLDAVAEHFKNIPETKYNEEVIQFCLIGRPNVGKSSLVNAMLGEERVIVSNVAGTTRDAVDTSFTYNQQEFVIVDTAGMRKKGKVYETTEKYSVLRALKAIDRSEVVAVVLDGEEGIIEQDKRIAGYAHEAGKAVVIVVNKWDAVDKDESTMKEFEENIRDHFQFLDYAPILFMSALTKKRIHTLMPAIIKASENHSLRVQTNVLNDVIMDAVAMNPTPTHNGSRLKIYYATQVSVKPPSFVVFVNDPELMHFSYERFLENRIRDAFGFEGTPIKIFARARK
B8: alanine racemase H166A (Geobacillus stearothermophilus, UniProt P10724); chain MNDFHRDTWAEVDLDAIYDNVENLRRLLPDDTHIMAVVKANAYGHGDVQVARTALEAGASRLAVAFLDEALALREKGIEAPILVLGASRPADAALAAQQRIALTVFRSDWLEEASALYSGPFPIHFHLKMDTGMGRLGVKDEEETKRIVALIERHPHFVLEGLYTAFATADEVNTDYFSYQYTRFLHMLEWLPSRPPLVHCANSAASLRFPDRTFNMVRFGIAMYGLAPSPGIKPLLPYPLKEAFSLHSRLVHVKKLQPGEKVSYGATYTAQTEEWIGTIPIGYADGWLRRLQHFHVLVDGQKAPIVGRICMDQCMIRLPGPLPVGTKVTLIGRQGDEVISIDDVARHLETINYEVPCTISYRVPRIFFRHKRIMEVRNAIGRGESSA
B9: protein (Pseudomonas putida, UniProt Q1XGK8); chain MKEIKHFINGAFVGSASGRTFEDINPSNGQVIGHVHEAGRAEVDAAVKAARAALKGPWGKLSVAERAEILHRVADGITARFDEFLEAECLDTGKPKSLASHIDIPRGAANFKVFADLLKNVANEAFEMATPDGAGAINYAVRRPKGVIGVISPWNLPLLLMTWKVGPALACGNTVVVKPSEETPLTATLLGEVMQAAGVPAGVYNVVHGFGGDSAGAFLTEHPDVDAYTFTGETGTGEVIMRAAAKGVRQVSLELGGKNAGIVFADCDMDKAIEGTLRSAFANCGQVCLGTERVYVERPIFDEFVARLKAGAESLMIGPPDDASSNFGPLVSLKHREKVLSYYQQAVDDGGSVITGGGVPDMPAHLAGGAWVQPTIWTGLSDDSAVVTEEIFGPCCHIRPFDTEEEAIELANSLPYGLASAIWTENGSRAHRVAGQIEAGIVWVNSWFLRDLRTAFGGSKQSGIGREGGVHSLEFYTELKNICVKL
B10: enzyme (Mortierella alpina, UniProt U5Y6A8); chain MAPPHVVDEQVRRRIVVEDEIQSKKQFERNYVPMDFTIKEIRDAIPAHLFIRDTTKSILHVVKDLVTIAIVFYCATFIETLPSLALRVPAWITYWIIQGTVMVGPWILAHECGHGAFSDSKTINTIFGWVLHSALLVPYQAWAMSHSKHHKGTGSMSKDVVFIPATRSYKGLPPLEKPAAEEEVLEQEHHHHEESIFAETPIYTLGALFFVLTLGWPLYLIMNFSGHEAPHWVNHFQTVAPLYEPHQRKNIFYSNCGIVAMGSILTYLSMVFSPLTVFMYYGIPYLGVNAWIVCITYLQHTDPKVPHFRDNEWNFQRGAACTIDRSFGTIVNHLHHHIGDSHQCHHMFSQMPFYNAVEATKHLKAKLGKYYIFDDTPIAKALYRNWRECKFVEDEGDVVFYKH
Sequence of UniProt Q8PWY1 (whole entry, looked up): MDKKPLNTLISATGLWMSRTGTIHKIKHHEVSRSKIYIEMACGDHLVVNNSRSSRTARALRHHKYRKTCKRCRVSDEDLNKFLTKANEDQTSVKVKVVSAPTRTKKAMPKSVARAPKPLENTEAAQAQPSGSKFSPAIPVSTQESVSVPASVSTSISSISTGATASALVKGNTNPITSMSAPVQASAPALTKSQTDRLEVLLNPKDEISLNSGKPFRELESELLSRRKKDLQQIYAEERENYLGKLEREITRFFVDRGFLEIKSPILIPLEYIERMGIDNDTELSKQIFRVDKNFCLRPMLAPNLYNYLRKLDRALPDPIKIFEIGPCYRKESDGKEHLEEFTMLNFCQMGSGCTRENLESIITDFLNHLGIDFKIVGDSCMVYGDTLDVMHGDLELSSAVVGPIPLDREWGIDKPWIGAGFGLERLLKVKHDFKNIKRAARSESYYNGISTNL

Molecule	substrate	pH	temperature	notes	added	Km
B1 (cyc1 F95H)	CC(C)=CCC/C(C)=C/CC/C(C)=C/CO[P@@](=O)(O)OP(=O)(O)O	pH 6.5	30 °C		MgCl2 10 mM	0.65 µM
B2 (ST3GAL2)	CC(=O)N[C@H]1[C@H](O[C@H]2[C@@H](O)[C@@H](CO)O[C@@H](O[C@H]3[C@H](O)[C@@H](O)[C@H](Oc4ccc([N+](=O)[O-])cc4)O[C@@H]3CO)[C@@H]2O)O[C@H](CO)[C@@H](O)[C@@H]1O[C@@H]1O[C@H](CO)[C@H](O)[C@H](O)[C@H]1O	pH 6			CMP-Neu5Ac	1710 µM
alanine aminopeptidase (Neisseria meningitidis, UniProt Q9JYV4)	NC(=O)Cc1cc(=O)oc2cc(NC(=O)[C@@H](N)CCCCOCc3ccccc3)ccc12	pH 7.5	37 °C			59.9 µM
B3 (POLI)	Cc1cn([C@H]2C[C@H](O)[C@@H](COP(=O)(O)OP(=O)(O)OP(=O)(O)O)O2)c(=O)[nH]c1=O	pH 8	37 °C	misinsertion opposite dT	Mg2+	70 µM
B4 (protein)	O[C@@H]1CCCc2ccccc21	pH 7.4		phosphate 400 mM, NADPH 250 µM printed	NADP+, reverse reaction	6470 µM
pylS (Methanosarcina mazei, UniProt Q8PWY1)	C[C@@H]1CC=N[C@H]1C(=O)NCCCC[C@H](N)C(=O)O	pH 7.2	37 °C	apparent		31 µM
B5 (enzyme)	Nc1nc2c(ncn2[C@@H]2O[C@H](COP(=O)(O)OP(=O)(O)OP(=O)(O)O)[C@@H](O)[C@H]2O)c(=O)[nH]1	pH 7.6	25 °C			3.1 µM
B6 (UGT1A9)	COc1ccc(/C=C\c2cc(OC)c(OC)c(OC)c2)cc1O	pH 7.4	37 °C			4.18 µM
B7 (engA)	Nc1nc2c(ncn2[C@@H]2O[C@H](COP(=O)(O)OP(=O)(O)OP(=O)(O)O)[C@@H](O)[C@H]2O)c(=O)[nH]1	pH 7.5	37 °C	KCl 200 mM, free enzyme, apparent	GTP 0-1 mM	199 µM
B8 (alanine racemase H166A)	C[C@@H](N)C(=O)O	pH 9	room temperature		NAD+ 10 mM	1600 µM
B9 (protein)	O=C/C=C/C=C(\O)C(=O)O	pH 8.5	25 °C	NaCl 50 mM	NAD+ 200 µM	1.3 µM
B10 (enzyme)	CCCCC/C=C\C/C=C\CCCCCCCC(=O)SCCNC(=O)CCNC(=O)[C@H](O)C(C)(C)COP(=O)(O)OP(=O)(O)OC[C@H]1O[C@@H](n2cnc3c(N)ncnc32)[C@H](O)[C@@H]1OP(=O)(O)O	pH 7.5	28 °C			15.9 µM

Some of these lines once more:
Molecule	substrate	pH	temperature	notes	added	Km
alanine aminopeptidase (Neisseria meningitidis, UniProt Q9JYV4)	NC(=O)Cc1cc(=O)oc2cc(NC(=O)[C@@H](N)CCCCOCc3ccccc3)ccc12	pH 7.5	37 °C			59.9 µM
B3 (POLI)	Cc1cn([C@H]2C[C@H](O)[C@@H](COP(=O)(O)OP(=O)(O)OP(=O)(O)O)O2)c(=O)[nH]c1=O	pH 8	37 °C	misinsertion opposite dT	Mg2+	70 µM
